Published values from different studies.
Each numbered part is a random draw from the data of one study; scales do not carry over between parts.

Study 1 — method: protein-binding microarray; molecule type: double-stranded DNA, one strand shown; medium: in vitro; tested at: 2200 nM top; setting: 60-bp whole probe; with: salmon DNA 0.4 mg/ml; relative to: random background probes; direction: higher = stronger binding; constant ends, left off below: GCCTAGCAC … GTCTTGATTCGCTTGACGCTGCTG
Target: Interferon regulatory factor 7, full length, phosphomimetic (IRF7, Homo sapiens, UniProt Q92985, residues 1-503, S471D/S472D/S475D/S476D/S477D/S483D/S484D/S487D)
Construct (chain): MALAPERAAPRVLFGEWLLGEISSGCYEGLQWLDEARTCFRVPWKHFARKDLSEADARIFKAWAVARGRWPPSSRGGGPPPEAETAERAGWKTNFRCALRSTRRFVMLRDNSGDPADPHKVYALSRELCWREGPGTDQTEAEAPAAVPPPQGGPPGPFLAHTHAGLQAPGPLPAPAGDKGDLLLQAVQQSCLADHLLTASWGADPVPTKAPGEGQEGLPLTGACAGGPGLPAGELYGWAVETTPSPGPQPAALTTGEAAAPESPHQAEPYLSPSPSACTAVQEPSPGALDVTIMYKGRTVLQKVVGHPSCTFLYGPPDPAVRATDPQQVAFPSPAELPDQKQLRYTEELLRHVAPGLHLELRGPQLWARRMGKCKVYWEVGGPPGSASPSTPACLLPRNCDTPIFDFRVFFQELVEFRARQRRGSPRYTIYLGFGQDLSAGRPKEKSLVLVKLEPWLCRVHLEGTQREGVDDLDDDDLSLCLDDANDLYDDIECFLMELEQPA
Oligonucleotide | fitted relative affinity
TTAGATTTCGGGTATTGATTAGTGCTA | 2.39 z-score
TCATCTCTCCATGTGTTACTGTGCTAG | 2.22 z-score
TTAGGTTTGGGTATCGGTTAGTGCTAG | 0.955 z-score
GACGGTTTTCTACTGCTGACGTGCTAG | 1.74 z-score
TTAGATCTCAGACTGGATGAGTGCTAG | 0.0591 z-score
GACGAACTGAGTATCGGGACGTGCTAG | -0.292 z-score
GGATCTTGCAGATGTCGCTGGGTGCTA | 0.0604 z-score
GACGGACTGGGAGTGGGGACGTGCTAG | -0.724 z-score
TTAGATTTTAGTCTCGATTAGTGCTAG | 0.41 z-score
TCAGTCATCCATCTGAAACTGTGCTAG | 0.729 z-score
ATAGGTTTCGGGTTTCGGTTAGTGCTA | 11.2 z-score
TCATAAATCTTTGTTGGAACTGTGCTA | -0.103 z-score
TTTGCTTTCTTTATGTACTCGTGCTAG | 3 z-score
TTGGGTTTCCTACTGCTTTAGTGCTAG | 1.41 z-score
GACGATATCGGGTTTTGAGACGTGCTA | 0.24 z-score
TTAGATCTCCTACTGCTTTAGTGCTAG | 0.855 z-score
GACGAACTGAGACTGGATACGTGCTAG | -0.0178 z-score
CTTCACATATAATTTTGTCATGTGCTA | 0.955 z-score
TTACAACTGGGGACTGGATTAGTGCTA | 0.218 z-score
GACGATATCAGTCTCGAGCCGTGCTAG | 0.106 z-score
TCATATCCCTAATCTCAGACTGTGCTA | 1.23 z-score
GACGCTTTCGGTTCCGGGACGTGCTAG | 12.3 z-score
TCACCTATCAGTTTAATACTGTGCTAG | 1.45 z-score
TCAACTTTCCATTTCTGACTGTGCTAG | 6.8 z-score
TCAACGAATTAGAAAGAGCAGTGCTAG | -0.926 z-score

Study 2 — method: aptamer microarray, sandwich; molecule type: DNA with 2'F-ANA; medium: in vitro; tested at: 200 nM; with: Cy3 exosite-II aptamer, 400 nM; direction: higher = stronger binding; oligonucleotide: GGTTGGTGTGGTTGG
Target: Prothrombin, mature alpha-thrombin (F2, Homo sapiens, UniProt P00734)
Setting: whole 15-mer aptamer, many near background
Modification | mean fluorescence intensity
2'F-ANA at 1 2 3 4 5 7 10 11 12 13 15 | 53.6 a.u.
2'F-ANA at 1 3 4 8 13 | 166 a.u.
2'F-ANA at 2 4 5 9 13 14 15 | 43.9 a.u.
2'F-ANA at 1 2 3 4 5 6 7 9 11 12 15 | 80.6 a.u.
2'F-ANA at 1 2 3 5 6 7 8 11 12 14 | 48.9 a.u.
2'F-ANA at 3 7 8 10 11 14 | 496 a.u.
2'F-ANA at 2 3 4 5 6 8 10 11 14 15 | 51.2 a.u.
2'F-ANA at 4 7 8 10 13 14 15 | 88.7 a.u.
2'F-ANA at 2 5 8 11 12 13 14 | 51.7 a.u.
2'F-ANA at 4 5 7 8 9 11 13 14 | 50.3 a.u.
2'F-ANA at 1 5 6 9 12 14 | 46.3 a.u.
2'F-ANA at 4 5 6 7 10 13 15 | 45.1 a.u.
2'F-ANA at 1 3 4 5 6 7 10 11 12 13 15 | 62.9 a.u.
2'F-ANA at 3 8 9 10 11 12 13 14 | 436 a.u.
2'F-ANA at 4 6 7 8 9 11 | 260 a.u.
2'F-ANA at 1 3 4 5 6 7 8 11 14 15 | 50.3 a.u.
2'F-ANA at 2 9 10 15 | 121 a.u.
2'F-ANA at 4 10 11 12 13 15 | 87.8 a.u.
2'F-ANA at 1 3 6 7 11 12 13 15 | 351 a.u.
2'F-ANA at 2 5 10 11 15 | 51.2 a.u.
2'F-ANA at 1 3 5 8 12 13 15 | 97 a.u.
2'F-ANA at 4 5 6 7 8 9 10 12 14 | 47 a.u.
2'F-ANA at 2 4 5 7 9 11 12 13 | 75.4 a.u.
2'F-ANA at 1 4 5 11 12 15 | 111 a.u.

Study 3 — method: RNA Bind-n-Seq; molecule type: RNA; medium: in vitro; tested at: 365 nM; relative to: no-protein control; direction: higher = stronger binding
Target: RNA binding protein fox-1 homolog 2, RRM domain, GST-SBP tag (RBFOX2, Homo sapiens, UniProt O43251-10, residues 100-194)
Setting: natural RNA segment, single round, ends assumed
Construct (chain): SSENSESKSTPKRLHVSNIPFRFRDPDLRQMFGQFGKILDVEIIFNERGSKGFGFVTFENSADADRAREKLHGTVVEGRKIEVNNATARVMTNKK
Oligonucleotide | RBNS enrichment (R)
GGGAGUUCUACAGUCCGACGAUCAAGUGAGAGCUUCCUGAGCUUUCUCCUGUCGGUUUGGUCUGUUUUGCCUUCACCCAUAAGCCCCUCGCACUCUGGUGGCAGGUGCCUUGUCCUCAGGGCUACAGCAGUAGUGGAAUUCUCGGGUGCCAA | 0.413
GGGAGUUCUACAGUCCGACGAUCGGAUAAAUCCCUUCCCUAUUGACCUUCUUACAUAGUGCAAGCAAUAAGACUUAUUGAUCUGUGUGUAUCCCAGUGUUCCUCUGGGGUUCUGUCUAAACACCAACCAUCUUUGGAAUUCUCGGGUGCCAA | 0.805
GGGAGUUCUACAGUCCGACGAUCGCCUGACUCCGGCCAGGAGGGUCAGAAGAAGGACAAAGGGGAGAGCUGGGACAAGGCCUUGCCCCCUUCCUGCCAUCUCCCCAACCCACAGUCUCUCCACCUUUGCUUCUUGGAAUUCUCGGGUGCCAA | 0.359
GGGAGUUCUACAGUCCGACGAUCAAAGGACUUGGCUUCCCUCGGAGUUUUACUGAUUUAUUUUUUUCUCUUUGCAUUGUGUACAUUAUCAUUGCUACAUCAGUUGUUACAGUGUUGAAAGGCUACCAGUUAUAUGGAAUUCUCGGGUGCCAA | 1.27
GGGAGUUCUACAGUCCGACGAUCCCCGCCGCAGCCUGCCAUCCCAUUUGGAUGUAUCAAUGCCACUGAGUUGUCUGUCCGUCCGUGGAGCCAGUCCUAGCCACAUUAUUGACAGUCUUGCAUUUUGUUUUGUCUGGAAUUCUCGGGUGCCAA | 1.8
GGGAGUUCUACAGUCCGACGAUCGGCUCAGAUGGACACAGAAUUCUAGCUUUACCUGCAUCCGCUGAUUCAGUUUUCUGUUGGGAUCAGAGUGAGGAUACUUCCAUAUGGGUGAUAGCAGCCAUGCCCCUGGGUGGAAUUCUCGGGUGCCAA | 0.556
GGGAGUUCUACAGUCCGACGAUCGAUGGUUGUGGGGGUUUCUAGGAAGCAGCUGCUGUGACAGGCCAAUCCCAGGCUUGCCCCCGAGCCCUCCUGUCCUUCUGGGUUUGUGUUUGCCUUGCCUGGUGCUUCCUUGGAAUUCUCGGGUGCCAA | 2
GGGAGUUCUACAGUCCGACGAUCGCCAGGGCCGUGCCAACUUAUGAAGACACUGCAGCUUGAGAGGGGCUUUGCUGAGGCUUCCCCUUGGCCAUGUGAAAGCCCGCCUUGUUGCCUGCUUUGUGCUUUCUGCAUGGAAUUCUCGGGUGCCAA | 1.73
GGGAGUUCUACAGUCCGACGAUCUUUGCUCUUAAGUUACAAGAGACCACAUCCACCCAGGGAUUAGGGUUCAAGUAGCAGCUGCUAACCCUUGCACCAGCCCUUGUGGGACUCCCAACACAAGACAAAGCUCAUGGAAUUCUCGGGUGCCAA | 0.55
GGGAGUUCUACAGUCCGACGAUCGGACCCUGGUGUCUAUGGUGAAGCUGGGCCCUCCCACCCUGAGCCUUCCUAGACCCUUGGACUCUCAGAUGCAGGGCCCUUGGCUCUGGCCUCUCACCCCCAAGGCUGUCUGGAAUUCUCGGGUGCCAA | 0.184
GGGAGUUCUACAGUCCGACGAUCUUACUGUGGCCCUCUUGUCUGGCAGCCUGGAGCCCAGGGAGGGACAGGGGCUUAUAGCUGCUGUAUGAGAACAUAAAGACUAGUGCACAGUGCUAUCUCCAUCUACUGACUGGAAUUCUCGGGUGCCAA | 0.544
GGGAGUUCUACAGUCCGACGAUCCUUUCCUUUAUUUUUUCUUCUGAAUAAAUAGAAAACCAACAGUUUGAUUUCCUUUUCCCUUAAAGGAAACAACUAAUACACAUUCUUAUAUGGCUUUAUGUAGUAAUAGUUGGAAUUCUCGGGUGCCAA | 1.01

Study 4 — method: protein binding microarray; molecule type: double-stranded DNA, one strand shown; medium: in vitro; tested at: not given; relative to: not given; direction: higher = stronger binding
Target: Histone acetyltransferase KAT6A, both winged helices, GST fusion (KAT6A, Homo sapiens, UniProt Q92794, residues 1-181)
Setting: 8-mer, flanks averaged, mean of 2 arrays, mostly near background
Construct (chain): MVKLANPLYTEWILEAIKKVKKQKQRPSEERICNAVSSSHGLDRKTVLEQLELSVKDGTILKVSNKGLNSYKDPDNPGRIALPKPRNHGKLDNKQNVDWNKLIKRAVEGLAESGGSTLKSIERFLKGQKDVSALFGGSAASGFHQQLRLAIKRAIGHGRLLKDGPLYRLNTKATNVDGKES
Oligonucleotide | E-score
TAGGAGGA | -0.206
CCTCATCG | -0.0765
ATTTACAG | -0.113
GACCGCTC | 0.196
CCAAGCGG | 0.158
GAATGTGC | 0.166
AACTGAAA | 0.00662
ATCTATCA | -0.076
GCTCCCCA | -0.218
ATTGTGCA | -0.0671
ATACCGCA | 0.204
CAGGGCAA | -0.133
CTCTGAGA | -0.128
AGACATCT | -0.2
TAGTACGA | 0.0144
AGATGGAA | -0.107
CGCGAATC | 0.238
GGAACCGA | 0.102
ACCCCTCC | -0.193
AGCTAGGA | -0.135
AAACGTGA | -0.0369
AGGTAAAT | -0.22
GCGTGAAC | 0.227
CAATCGCC | 0.0984
AAGTTCTA | -0.0404

Study 5 — method: universal PBM; molecule type: double-stranded DNA, one strand shown; medium: in vitro; tested at: not given; direction: higher = stronger binding
Target: Sal-like protein 4, full length isoform B (SALL4, Homo sapiens, UniProt Q9UJQ4-2, residues 1-616)
Setting: 8-mer, flanks averaged, mean of replicates
Oligonucleotide | E-score
ATGCAAAA | 0.293
GCCCACGC | -0.329
CATTTCAA | 0.323
GGATTCAA | 0.0476
CATGGGAC | -0.194
AAGCGATT | 0.119
ACCCCATG | -0.115
AATCTGCG | -0.0884
CTCTCAAA | 0.0913
ACGGAGCC | -0.275
AGAGGGCA | -0.12
CTTGAATA | 0.245
CGCTGACA | -0.234
AGAGGCCT | -0.165
CGGGAACA | -0.0713
GAGCTATC | -0.145
CAAAATCG | 0.082
AACTCAAT | 0.128
GGGCCCCA | -0.313
TGACGCAA | -0.0899
AATCTGTC | 0.056
ACTGCTTA | 0.075
ATTGTTAA | 0.349
CATCAACG | -0.0143
TGAATCAA | 0.225
